Results collected from several papers.
Protocols differ between the studies behind these lines. Numbers after ± are the reported error.

SMILES	target	assay	test system	setting	scale	quantity	value
COc1ccc(NC(=O)[C@@H](CCCCN)NC(=O)c2cc(NC(=O)[C@@H](CCCCN)NC(=O)c3cc(NC(=O)[C@@H](CCCCN)NC(=O)c4cc(NC(=O)[C@H](N)CCCCN)ccc4OC)ccc3OC)ccc2OC)cc1C(N)=O	antithrombin III-factor Xa	fondaparinux reversal, amidolytic		pH 8.4, with: fondaparinux 0.02 µg/mL		EC50	3 µM
CC(=O)N[C@@H](CCCCNC(=O)CCCC[C@@H]1SC[C@@H]2NC(=O)N[C@@H]21)C(=O)N[C@@H](CC(=O)O)C(=O)N[C@@H](CC(C)C)C(=O)N[C@@H](Cc1c[nH]c2ccccc12)C(=O)N[C@@H](CCCCN)C(=O)N[C@@H](CC(C)C)C(N)=O	anti-p53 antibody	binding, AFM force spectroscopy		biotin-neutravidin immobilization on gold		adhesion pull-off force	1.7e-10 ± 9e-12 N
CCCCC/C=C/C(=O)CCc1ccc(O)c(OC)c1	mouse mAb 1-F12	antibody binding, indirect competitive ELISA		with: coating antigen 6-OVA		IC50	0.234 µg/mL
COc1cc(C(=O)c2[nH]c(N)nc2-c2cccs2)cc(OC)c1OC	tubulin goat	taxol-induced tubulin polymerization		30 µM, with: taxol 10 µM		inhibition	33 ± 9%
O=C(/C=C/c1ccccc1O)c1ccccc1	HDAC class I, II and IV (human)	enzyme activity, inhibitor, fluorometric	K562 cell extract	1 h, 37 °C		IC50	> 1000 µM
COc1cc(CCC(C)=O)ccc1O	mouse mAb 1-F12	antibody binding, indirect competitive ELISA		with: coating antigen hapten 5-OVA		IC50	0.283 µg/mL
Cn1ccc2c(N3CCN(CCCCOc4ccc5c(c4)NC(=O)CC5)CC3)cccc21	5-HT1A receptor	arrestin over Gi/o signalling, GloSensor and Tango, operational model	cells		reference: serotonin	bias factor	60
Cn1cncn1.[Ru+2].c1cc(-c2ccc3ccccc3n2)nc(-c2ccc3ccccc3n2)c1.c1ccc2cc3nc4c5cccnc5c5ncccc5c4nc3cc2c1	cysteine cathepsins (mouse)	enzyme activity	4T1, cell lysate	1 µM, 4 h, dark, then 1 h, with: Z-Phe-Arg-AMC	reference: vehicle	remaining activity	94 ± 8%
CCCC[C@H](NC(C)=O)C(=O)N[C@@H](CO)C(=O)N[C@H](C(=O)N1CCC[C@H]1C(=O)N[C@]1(C)CCCCCCC=CCCC[C@@](C)(C(=O)N[C@@H](Cc2ccccc2)C(=O)N[C@@H](CCCCN)C(=O)N[C@@H](CCCNC(=N)N)C(=O)N[C@@H](CC(C)C)C(=O)N[C@@H](CCC(N)=O)C(N)=O)NC(=O)[C@H](CCCNC(=N)N)NC(=O)[C@H](CCCC)NC(=O)[C@H](CC(C)C)NC(=O)[C@H](CCCNC(=N)N)NC(=O)[C@H](CCCNC(=N)N)NC(=O)[C@H](CCCNC(=N)N)NC1=O)[C@@H](C)O	UBE1	p53 ubiquitination, inhibitor		30 µM, 2 h, 37 °C, with: UBE2A, HDM2, ubiquitin, ATP		inhibition	inhibited
Cc1ccc(NS(=O)(=O)c2cccc(C#N)c2)c2[nH]cc(C#N)c12	human DCAF15-DDB1	TR-FRET		concentration not given, outcome no effect		effect of DDA1 on binding	no effect
CC(C)N(CCC1CC2CN(Cc3ccc(S(C)(=O)=O)cc3)CC2C1)C[C@H]1O[C@@H](n2cnc3c(N)ncnc32)[C@H](O)[C@@H]1O (stereo partly drawn)	human DOT1L R231Q	inhibitor, western blot, item: H3K79me2 over histone H3	H460 DOT1L R231Q	concentration not given	reference: cpd over SGC0946	H3K79me2 level ratio	2.03
Clc1ccc(NN=C(c2ccccc2)c2ccccn2)nc1	histone deacetylase	enzyme activity	cell lysate	concentration not given		inhibition	no inhibition

Some of these lines once more:
SMILES	target	assay	test system	setting	scale	quantity	value
Cn1ccc2c(N3CCN(CCCCOc4ccc5c(c4)NC(=O)CC5)CC3)cccc21	5-HT1A receptor	arrestin over Gi/o signalling, GloSensor and Tango, operational model	cells		reference: serotonin	bias factor	60
Cn1cncn1.[Ru+2].c1cc(-c2ccc3ccccc3n2)nc(-c2ccc3ccccc3n2)c1.c1ccc2cc3nc4c5cccnc5c5ncccc5c4nc3cc2c1	cysteine cathepsins (mouse)	enzyme activity	4T1, cell lysate	1 µM, 4 h, dark, then 1 h, with: Z-Phe-Arg-AMC	reference: vehicle	remaining activity	94 ± 8%
